Experimental data gathered from unrelated publications.
Lines come from different studies, so protocols differ. Values joined by “and” are separate records of one study, mostly repeats; a detail may differ.
UniProt Q9EP89, sequence (whole entry, looked up): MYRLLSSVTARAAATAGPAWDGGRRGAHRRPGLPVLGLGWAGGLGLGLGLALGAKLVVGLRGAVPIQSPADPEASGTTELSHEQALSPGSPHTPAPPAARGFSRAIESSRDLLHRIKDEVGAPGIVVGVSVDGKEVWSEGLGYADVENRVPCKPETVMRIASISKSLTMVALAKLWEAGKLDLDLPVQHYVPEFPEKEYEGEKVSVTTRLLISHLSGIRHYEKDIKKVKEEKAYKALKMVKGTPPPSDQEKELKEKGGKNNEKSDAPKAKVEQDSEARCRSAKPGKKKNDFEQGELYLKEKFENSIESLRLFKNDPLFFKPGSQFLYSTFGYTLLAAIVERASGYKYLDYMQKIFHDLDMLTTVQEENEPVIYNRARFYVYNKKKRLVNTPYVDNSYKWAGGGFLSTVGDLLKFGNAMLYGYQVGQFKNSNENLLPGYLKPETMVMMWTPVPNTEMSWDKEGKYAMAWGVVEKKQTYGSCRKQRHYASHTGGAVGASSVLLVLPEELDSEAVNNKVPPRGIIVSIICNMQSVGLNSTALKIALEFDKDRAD
UniProt Q9Y2J8, sequence (whole entry, looked up): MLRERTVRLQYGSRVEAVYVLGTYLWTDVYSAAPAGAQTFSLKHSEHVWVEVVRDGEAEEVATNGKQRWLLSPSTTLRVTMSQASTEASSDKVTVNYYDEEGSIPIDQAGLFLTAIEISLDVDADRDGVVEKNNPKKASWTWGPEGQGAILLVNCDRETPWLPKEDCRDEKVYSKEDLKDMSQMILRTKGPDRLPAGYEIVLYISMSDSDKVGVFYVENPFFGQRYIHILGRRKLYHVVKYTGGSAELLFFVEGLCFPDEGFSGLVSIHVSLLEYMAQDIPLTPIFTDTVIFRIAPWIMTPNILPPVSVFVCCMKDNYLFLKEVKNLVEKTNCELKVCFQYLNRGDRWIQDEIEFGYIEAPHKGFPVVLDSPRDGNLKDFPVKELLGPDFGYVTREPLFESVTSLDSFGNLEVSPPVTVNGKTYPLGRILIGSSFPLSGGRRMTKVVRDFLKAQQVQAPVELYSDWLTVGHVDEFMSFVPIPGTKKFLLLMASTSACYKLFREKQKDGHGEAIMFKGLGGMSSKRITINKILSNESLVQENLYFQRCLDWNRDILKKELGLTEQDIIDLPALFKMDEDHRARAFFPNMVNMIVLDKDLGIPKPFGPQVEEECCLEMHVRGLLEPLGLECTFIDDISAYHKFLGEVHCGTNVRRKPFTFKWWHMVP
UniProt Q93009, sequence (whole entry, looked up): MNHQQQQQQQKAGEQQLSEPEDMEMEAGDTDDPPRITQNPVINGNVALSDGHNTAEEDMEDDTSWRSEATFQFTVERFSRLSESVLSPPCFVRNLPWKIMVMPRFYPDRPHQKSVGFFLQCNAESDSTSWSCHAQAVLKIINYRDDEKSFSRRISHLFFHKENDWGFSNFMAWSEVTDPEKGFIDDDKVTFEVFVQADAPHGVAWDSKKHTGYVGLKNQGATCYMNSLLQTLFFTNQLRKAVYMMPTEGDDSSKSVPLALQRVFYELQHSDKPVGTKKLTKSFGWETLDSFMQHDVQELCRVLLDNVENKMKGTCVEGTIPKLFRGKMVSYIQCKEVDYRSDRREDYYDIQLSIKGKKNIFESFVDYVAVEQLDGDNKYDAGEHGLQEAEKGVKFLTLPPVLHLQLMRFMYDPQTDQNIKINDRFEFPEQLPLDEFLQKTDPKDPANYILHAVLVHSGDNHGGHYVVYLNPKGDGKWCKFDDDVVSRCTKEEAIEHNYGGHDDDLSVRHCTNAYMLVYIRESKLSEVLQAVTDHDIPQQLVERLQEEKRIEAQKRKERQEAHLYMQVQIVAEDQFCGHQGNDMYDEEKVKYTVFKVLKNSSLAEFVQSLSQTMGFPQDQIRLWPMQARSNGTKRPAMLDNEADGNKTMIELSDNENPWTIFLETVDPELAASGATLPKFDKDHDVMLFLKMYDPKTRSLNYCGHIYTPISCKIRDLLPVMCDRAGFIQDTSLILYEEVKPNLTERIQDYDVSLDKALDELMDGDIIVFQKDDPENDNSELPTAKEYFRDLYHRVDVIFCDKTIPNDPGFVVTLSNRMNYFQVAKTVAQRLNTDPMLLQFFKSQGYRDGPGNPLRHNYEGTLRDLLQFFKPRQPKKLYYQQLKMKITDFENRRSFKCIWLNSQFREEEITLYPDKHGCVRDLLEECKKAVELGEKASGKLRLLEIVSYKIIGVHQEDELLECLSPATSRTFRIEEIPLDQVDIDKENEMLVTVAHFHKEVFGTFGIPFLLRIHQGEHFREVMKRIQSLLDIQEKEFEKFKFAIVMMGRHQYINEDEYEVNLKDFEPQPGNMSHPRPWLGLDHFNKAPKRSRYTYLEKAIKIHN
UniProt P41145, sequence (whole entry, looked up): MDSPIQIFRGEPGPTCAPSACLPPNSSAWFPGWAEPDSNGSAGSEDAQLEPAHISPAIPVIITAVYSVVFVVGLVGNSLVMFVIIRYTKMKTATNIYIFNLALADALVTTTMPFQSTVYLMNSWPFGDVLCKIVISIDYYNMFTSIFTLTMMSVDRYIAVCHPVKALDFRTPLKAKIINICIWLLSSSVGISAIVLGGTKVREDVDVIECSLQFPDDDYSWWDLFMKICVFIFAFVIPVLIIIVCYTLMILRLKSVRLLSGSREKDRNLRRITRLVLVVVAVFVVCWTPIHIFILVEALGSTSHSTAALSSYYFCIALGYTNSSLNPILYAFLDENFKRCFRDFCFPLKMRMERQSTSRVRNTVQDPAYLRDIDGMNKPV
UniProt Q05655, sequence (whole entry, looked up): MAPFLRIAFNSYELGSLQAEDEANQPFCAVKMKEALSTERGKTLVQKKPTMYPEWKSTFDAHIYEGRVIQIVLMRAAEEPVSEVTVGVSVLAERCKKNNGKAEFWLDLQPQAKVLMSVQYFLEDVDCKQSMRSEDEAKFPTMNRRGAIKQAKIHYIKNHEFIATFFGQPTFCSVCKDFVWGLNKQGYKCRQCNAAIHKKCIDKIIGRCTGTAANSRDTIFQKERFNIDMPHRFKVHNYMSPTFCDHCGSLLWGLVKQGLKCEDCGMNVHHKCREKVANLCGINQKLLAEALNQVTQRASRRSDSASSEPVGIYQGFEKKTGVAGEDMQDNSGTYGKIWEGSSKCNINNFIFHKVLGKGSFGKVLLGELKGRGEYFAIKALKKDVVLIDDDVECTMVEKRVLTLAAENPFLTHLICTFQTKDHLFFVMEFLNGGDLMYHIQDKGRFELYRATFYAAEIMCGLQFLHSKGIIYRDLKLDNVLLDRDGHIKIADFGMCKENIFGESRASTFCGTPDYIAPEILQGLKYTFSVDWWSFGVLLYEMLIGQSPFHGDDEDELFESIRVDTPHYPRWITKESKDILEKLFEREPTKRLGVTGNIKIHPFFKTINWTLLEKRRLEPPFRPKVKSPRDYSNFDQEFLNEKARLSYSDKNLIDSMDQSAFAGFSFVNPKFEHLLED
UniProt Q9UQB9, sequence (whole entry, looked up): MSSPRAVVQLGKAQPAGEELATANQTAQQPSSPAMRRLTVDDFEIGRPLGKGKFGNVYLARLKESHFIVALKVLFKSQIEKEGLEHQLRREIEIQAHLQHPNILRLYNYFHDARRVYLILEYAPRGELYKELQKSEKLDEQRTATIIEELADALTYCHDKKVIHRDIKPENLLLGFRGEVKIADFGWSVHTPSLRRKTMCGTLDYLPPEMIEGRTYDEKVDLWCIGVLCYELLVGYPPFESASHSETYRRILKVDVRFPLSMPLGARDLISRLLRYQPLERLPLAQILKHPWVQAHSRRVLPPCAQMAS
UniProt P0A988, sequence (whole entry, unmodified, looked up): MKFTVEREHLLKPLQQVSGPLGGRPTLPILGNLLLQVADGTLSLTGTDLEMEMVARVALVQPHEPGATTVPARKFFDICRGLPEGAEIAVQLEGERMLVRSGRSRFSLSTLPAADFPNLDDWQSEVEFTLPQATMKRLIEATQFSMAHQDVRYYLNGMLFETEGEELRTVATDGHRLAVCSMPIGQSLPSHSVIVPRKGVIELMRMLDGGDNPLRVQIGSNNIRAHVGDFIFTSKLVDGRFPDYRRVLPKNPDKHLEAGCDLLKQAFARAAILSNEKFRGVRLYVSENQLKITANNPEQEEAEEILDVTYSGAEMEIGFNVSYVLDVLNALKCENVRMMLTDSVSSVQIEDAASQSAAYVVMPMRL
UniProt P42765, sequence (whole entry, looked up): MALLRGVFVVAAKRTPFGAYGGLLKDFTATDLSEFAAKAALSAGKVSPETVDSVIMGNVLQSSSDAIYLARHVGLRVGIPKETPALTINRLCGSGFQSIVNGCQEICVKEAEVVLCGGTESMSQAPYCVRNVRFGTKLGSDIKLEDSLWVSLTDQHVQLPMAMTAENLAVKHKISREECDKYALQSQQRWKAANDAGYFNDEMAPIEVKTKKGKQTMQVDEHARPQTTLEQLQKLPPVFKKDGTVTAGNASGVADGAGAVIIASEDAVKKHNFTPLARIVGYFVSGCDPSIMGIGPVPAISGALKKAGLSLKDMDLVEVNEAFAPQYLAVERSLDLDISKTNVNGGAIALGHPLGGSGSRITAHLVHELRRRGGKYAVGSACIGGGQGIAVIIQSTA
UniProt Q86Y07, sequence (whole entry, looked up): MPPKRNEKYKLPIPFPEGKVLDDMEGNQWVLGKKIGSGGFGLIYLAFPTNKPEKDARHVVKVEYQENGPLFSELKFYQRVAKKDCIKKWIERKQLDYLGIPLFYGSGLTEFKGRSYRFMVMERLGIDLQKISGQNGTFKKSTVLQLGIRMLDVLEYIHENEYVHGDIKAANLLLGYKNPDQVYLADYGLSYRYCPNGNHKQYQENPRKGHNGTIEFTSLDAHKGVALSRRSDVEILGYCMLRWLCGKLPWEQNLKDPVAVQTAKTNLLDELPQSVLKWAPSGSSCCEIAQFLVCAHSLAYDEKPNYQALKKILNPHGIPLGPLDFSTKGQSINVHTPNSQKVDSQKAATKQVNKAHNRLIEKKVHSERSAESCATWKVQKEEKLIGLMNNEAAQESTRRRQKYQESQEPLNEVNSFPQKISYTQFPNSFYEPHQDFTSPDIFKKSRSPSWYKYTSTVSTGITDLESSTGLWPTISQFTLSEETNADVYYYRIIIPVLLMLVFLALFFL

| Structure (SMILES) | target | assay | test system | conditions | scale | measurement | result |
| --- | --- | --- | --- | --- | --- | --- | --- |
| C#CCCCCOc1ccc2c(c1)CCCN2C(=O)CCl | 3-ketoacyl-CoA thiolase, mitochondrial (Homo sapiens, UniProt P42765) | mass spectrometry profiling | Ramos cell lysate | 100 µM over 10 µM, UniProt P42765 | baseline: high over low concentration | reactivity ratio | 0.565 |
| O=C1NC(=O)c2c1c1cc(F)c[n+]3c1c1c2c2cc(O)ccc2[n]1[Ru-4]312([N]=C=S)[S+]3CC[S+]1CC[S+]2CC3 (centres unmarked) | Tyrosine-protein kinase TXK (TXK, Homo sapiens, UniProt P42681) | enzyme activity |  | 100 nM, human enzyme, together with: 10 µM ATP | baseline: untreated | remaining activity | 106% |
| O=C(N1CCCCC1)n1ccnn1 | Serine beta-lactamase-like protein LACTB, mitochondrial (Lactb, Mus musculus, UniProt Q9EP89) | probe labelling, inhibitor, competitive ABPP-SILAC, measured: Lactb | mouse T cells | concentration not given, 4 h, in situ, single peptide | baseline: treated over DMSO, lower = more inhibition | SILAC ratio | 1.43 and 2.02 and 1.34 and 1.51 and 1.38 |
| CCCCCC(O)/C=C/C=O (centres unmarked) | 60 kDa heat shock protein, mitochondrial (Homo sapiens, UniProt P10809) | competitive isoTOP-ABPP, measured: HSPD1 cysteine peptide | proteome, soluble, MDA-MB-231 | 100 µM, together with: iodoacetamide probe | baseline: DMSO over compound-treated, higher = stronger cysteine blockade | isoTOP-ABPP competition ratio | 2 |
| CC(=O)N[C@@H](CCC(N)=O)C(=O)N[C@@H](CC1CCCCC1)C(=O)N[C@@H](CNC(=O)CCl)C(=O)N[C@@H](CC(C)C)C(=O)N[C@@H](Cc1ccccc1)C(=O)O | Beta sliding clamp (Escherichia coli, UniProt P0A988) | binding, isothermal titration calorimetry |  | pH 7.4, 22 °C |  | ΔH | -10.9 kcal/mol |
| Cc1ccc(N2CC3CCC(C2)N3C)cc1C(=O)N[C@H](C)c1cc(-c2cnn(C)c2)nc2ccccc12 | Ubiquitin carboxyl-terminal hydrolase 7 (USP7, Homo sapiens, UniProt Q93009) | enzyme activity |  | 30 µM |  | remaining activity | 97% |
| N[C@H](C(=O)N1CCCC1)C1CCN(c2nccc3c(-c4ncc(Cl)cc4Cl)cccc23)CC1 | Protein-arginine deiminase type-2 (PADI2, Homo sapiens, UniProt Q9Y2J8) | enzyme activity |  | 0.006291 µM, together with: Ca2+ 0.25 mM |  | kcat | 1.48 s⁻¹ and 1.31 s⁻¹ |
| O=C(Cc1ccc(Cl)c(Cl)c1)N1CCN(CCO)[C@@H]2COC[C@H](N3CCCC3)[C@H]21 (relative stereo) | Kappa-type opioid receptor (OPRK1, Homo sapiens, UniProt P41145) | β-arrestin-2 recruitment, agonist | U2OS | 1.5 h | baseline: U-69593 maximal response | Emax | 96% |
| O=C(O)C(/C=C/c1ccc(Cl)cc1)=N\Nc1nc(-c2ccc(Cl)cc2)cs1 | Acetylcholinesterase (ache, Electrophorus electricus, UniProt O42275) | Ellman |  |  | baseline: IC50 BChE over IC50 AChE | selectivity index | 10.4 |
| CS(C)(=O)=Nc1ccc(-c2ccc(-c3nc4cc(O[C@@H]5CO[C@H]6[C@@H]5OC[C@H]6O)[nH]c4cc3F)cc2)cc1 | Serine/threonine-protein kinase VRK2 (VRK2, Homo sapiens, UniProt Q86Y07) | enzyme activity, inhibitor |  | 10 µM |  | inhibition | 5% |
| CC(C)(C)c1cc(B(O)O)cc(C(C)(C)C)c1 | Beta-lactamase (ampC, Escherichia coli K-12, UniProt P00811) | inhibitor, CENTA hydrolysis |  | from calculated Ki |  | ligand efficiency | 0.43 |
| O=C(N[C@@H]1c2ccccc2C[C@H]1N1CCCC1)c1ccc(-c2ccnc3[nH]ccc23)nc1 | Protein kinase C delta type (PRKCD, Homo sapiens, UniProt Q05655) | binding, competition with immobilised ligand |  | 3 µM |  | remaining binding | 5.6% |
| CC(C)[C@H]1NC(=O)C[C@H]2/C=C/CCSSC[C@@H](NC1=O)C(=O)N[C@H](Cc1cccc3ccccc13)C(=O)NCC(=O)O2 | Aurora kinase C (AURKC, Homo sapiens, UniProt Q9UQB9) | enzyme activity, inhibitor |  | 10 µM |  | inhibition | -4.4% |
| CN(C)[C@H]1C[C@@]23CC[C@@]4(O2)C(=CC[C@]2(C)[C@@H](c5ccc6ccncc6c5)CC[C@H]24)C=C3[C@@H](O)[C@@H]1O | Serine/threonine-protein kinase WNK2 (WNK2, Homo sapiens, UniProt Q9Y3S1) | ATP probe labelling, inhibitor, KiNativ profiling |  | 0.1 µM |  | inhibition | -3.8% |

For quick reference, copied from above:
| Structure (SMILES) | target | assay | test system | conditions | scale | measurement | result |
| --- | --- | --- | --- | --- | --- | --- | --- |
| O=C1NC(=O)c2c1c1cc(F)c[n+]3c1c1c2c2cc(O)ccc2[n]1[Ru-4]312([N]=C=S)[S+]3CC[S+]1CC[S+]2CC3 (centres unmarked) | Tyrosine-protein kinase TXK (TXK, Homo sapiens, UniProt P42681) | enzyme activity |  | 100 nM, human enzyme, together with: 10 µM ATP | baseline: untreated | remaining activity | 106% |
